Published values collected from several papers.
Numbered parts are unrelated; each lists some results of a single study. Substitutions count along the parent as printed.

Sample 1
Target: Fragile X messenger ribonucleoprotein 1, C-terminal low-complexity region (Fmr1, Mus musculus, UniProt P35922)
Method: RNA Bind-n-Seq
Form: RNA
Sample: in vitro
Concentration: 200 nM
Notes: whole 134-nt RNA, ends assumed
Together with: 150 mM KCl
Reference: input library
Reading: higher = stronger binding
Measurement: log2 enrichment
All sequences stand within: GGGAGUUCUACAGUCCGACGAUC … UGGAAUUCUCGGGUGUCAAGG
CUCAAGUCCUGUGCUACACAUCGUAUGUACCGAAUCGGUUUGGUGGAAAAAGGAAAGUAUUAUGUUACGCCGUUCGGAUCUGCACUUCCA: -0.147
ACCAUGCAGGUGGGCAUCUUUGGGAAGUGGGGCAAGGGGGGGAUAGGGAGGGGGGUAACACUUUGGGACCAGGUGGUCCCAGGUCGUUUC: 0.723
AAGUCCUGUGCUACACAUCGUAUGUACCGAAUCGGGGAAAGGGGUUUGGGGAGGGGAAAGUAUUAUGUUACGCCGUUCGGAUCUGCACUU: 0.91
AGUCCUGUGCUACACAUCGUAUGUACCGAAUCGGGUGGGUUUUUGGGUUUUUUUGGGAAAGUAUUAUGUUACGCCGUUCGGAUCUGCACU: 0.39
UGUGCUACACAUCGUAUGUACCGAAUCGGGGCCCCCCCGGGGCCCCCCCGGGCCCCCCCGGGAAAGUAUUAUGUUACGCCGUUCGGAUCU: -1.41
UGGGAGGUGGAUUUUGUUUAUUUUUUUAGCUCAUUUCCGGGGGUGGGAAUUUUUUUUUAAUAUGUGUCAUGAAUAAAGUUGUUUUUGAAA: 0.401
UGGCCCUGGUGGCAUGCGGGGAGGAAGAGGUGGCCACAUGGAUCGUGGUGGUCCCGGUGGAAUGUUCAGAGGUGGCCGUGGUGGAGACAG: 0.126

Sample 2
Target: CCNE2, cyclin fold, Cln2 fusion (human)
Method: yeast growth competition, sequencing
Sample: yeast
Notes: weak parent motif
Reference: not given
Reading: higher = stronger binding
Measurement: normalised enrichment score
Starting sequence: RB1 docking peptide (human); PKPLKKLRFDIEG; partner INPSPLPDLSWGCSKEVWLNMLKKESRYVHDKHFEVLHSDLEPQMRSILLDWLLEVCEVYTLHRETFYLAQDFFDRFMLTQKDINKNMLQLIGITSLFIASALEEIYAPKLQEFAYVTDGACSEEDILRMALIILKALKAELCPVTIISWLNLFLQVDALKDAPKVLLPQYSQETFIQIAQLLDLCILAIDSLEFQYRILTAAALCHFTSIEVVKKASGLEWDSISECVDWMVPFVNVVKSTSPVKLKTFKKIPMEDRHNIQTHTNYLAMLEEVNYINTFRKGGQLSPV
I11V: 1.01
F9R: 0.386
D10S: -0.168
R8K: 0.736
I11D: 0.0649
I11M: 0.551
K2V: 0.73

Sample 3
Target: Sal-like protein 4, full length isoform A (SALL4, Homo sapiens, UniProt Q9UJQ4, residues 1-1053)
UniProt Q9UJQ4, sequence (whole entry, looked up): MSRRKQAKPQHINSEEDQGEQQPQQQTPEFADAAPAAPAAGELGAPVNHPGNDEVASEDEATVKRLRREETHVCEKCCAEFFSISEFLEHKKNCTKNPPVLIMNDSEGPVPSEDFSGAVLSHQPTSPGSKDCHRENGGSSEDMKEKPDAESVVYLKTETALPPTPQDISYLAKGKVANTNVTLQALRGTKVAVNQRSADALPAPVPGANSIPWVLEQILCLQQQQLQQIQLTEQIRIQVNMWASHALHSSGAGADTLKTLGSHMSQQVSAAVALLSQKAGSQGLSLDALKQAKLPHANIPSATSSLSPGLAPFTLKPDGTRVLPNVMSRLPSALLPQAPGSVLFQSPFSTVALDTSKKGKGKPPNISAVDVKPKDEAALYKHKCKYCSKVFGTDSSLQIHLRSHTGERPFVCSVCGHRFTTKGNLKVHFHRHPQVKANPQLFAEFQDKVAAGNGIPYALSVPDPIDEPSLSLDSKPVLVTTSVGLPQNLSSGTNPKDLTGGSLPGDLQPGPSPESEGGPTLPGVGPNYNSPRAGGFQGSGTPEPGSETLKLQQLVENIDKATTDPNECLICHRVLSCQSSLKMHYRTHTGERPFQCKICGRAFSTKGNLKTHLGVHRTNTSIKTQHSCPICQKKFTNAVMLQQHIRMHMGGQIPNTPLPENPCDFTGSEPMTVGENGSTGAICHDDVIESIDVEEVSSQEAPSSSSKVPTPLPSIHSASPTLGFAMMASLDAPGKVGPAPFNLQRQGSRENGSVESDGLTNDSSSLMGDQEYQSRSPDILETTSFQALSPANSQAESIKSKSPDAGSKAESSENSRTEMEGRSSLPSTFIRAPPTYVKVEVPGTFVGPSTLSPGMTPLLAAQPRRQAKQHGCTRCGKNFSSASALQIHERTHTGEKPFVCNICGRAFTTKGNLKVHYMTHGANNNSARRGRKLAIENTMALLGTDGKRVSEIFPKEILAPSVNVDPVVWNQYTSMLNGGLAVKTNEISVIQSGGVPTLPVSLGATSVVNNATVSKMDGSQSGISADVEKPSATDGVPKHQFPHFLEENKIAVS
Method: universal PBM
Form: double-stranded DNA, one strand shown
Sample: in vitro
Concentration: 600 nM
Notes: 8-mer, flanks averaged, mean of replicates
Reading: higher = stronger binding
Measurement: E-score
CATCGAAG: 0.17
CACGCTTA: 0.0197
ACAGCGGT: -0.117
GTAACCGA: -0.0782
CACACCAC: -0.0695
GATTAAGA: 0.207
AAATGAAC: 0.244

Other studies, line by line
PhoQ, residues 284 288 289 292 302 303 SSCCRF  fold induction (PhoP, residues 12 14 15 18 19 STWGI (Escherichia coli, UniProt P23836); Sort-seq, item: YFP reporter; E. coli; PhoQ-PhoP variant library, together with: 10 µM Mg2+; reference: high Mg2+ state, higher = stronger signaling): 8.06

For quick reference, copied from above (sample 3):
CATCGAAG: 0.17
CACGCTTA: 0.0197
